# Results from different studies.
# Numbered parts are unrelated; each lists some results of a single study. Positions count from the first letter of the parent shown.

# Sample 1
# Target: RNA binding protein fox-1 homolog 2, RRM domain, GST-SBP tag (RBFOX2, Homo sapiens, UniProt O43251-10, residues 100-194)
# Method: RNA Bind-n-Seq
# Molecule type: RNA
# Matrix: in vitro
# Tested at: 365 nM
# Notes: natural RNA segment, single round, ends assumed
# Reference: no-protein control
# Direction: higher = stronger binding
# Constant ends, left off below: GGGAGUUCUACAGUCCGACGAUC … UGGAAUUCUCGGGUGCCAA
# Residues (chain): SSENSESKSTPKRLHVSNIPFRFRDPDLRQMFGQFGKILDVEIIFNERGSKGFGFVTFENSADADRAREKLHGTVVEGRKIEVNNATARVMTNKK
Oligonucleotide,RBNS enrichment (R)
GAUUCUCAAAAGUGUGAGUCCUGGACCAGCAGCAACAGCAUCACCGGGAACUUGUUAGAAAUGCACAUUCUCAGGCCACUCCCUAGACCUACUGAAUCAGAAACCCUGGG,0.66
UUCUCGUUUCUAUGCAGCCCCAUAGUCCAAGGACACCCAGUCCACAUCUACCAUAUAGCAAGUUUAGUAAGGGAAGGCAGCAUACGUCCCAGGGACAGUGGGUUUGGAUC,1.82
ACAGAUGAUCAUAGCAGGGAUUUGAAAUAUGAAUUAUGGUUACAUGGUCCUGAUUUUUUUUUUUUGGUGACAUGAAUGGAACAGAAGUAUUUUGUUUUAGAAGGUCCUGG,0.46
CCUGUACCAUAUUAUGGAAAACUGUUAACUGCUUAAUUGGGUAAUUUUCAAAGAAAGUAAUGUUGUUAAAUGGGGCGAAAUAAGAAGUUAAAUUUGAAAGUGAAUGUGUU,0.842
UGAACAGGGCUGUUAAAGGUCCAUGCUCAAAUACAAGGGAGACAACAGAUAGGACAGGACAGGGCUCUGGGUGCUGUCCAGGGACUAAGGAAUACAGCUAAAUAAACCAA,0.421
UGGAAUCCUCACUGUAUCCACUAGGAGAUUAGAAAUUAAGGUUUCUUCACUACUUCUAUGGUAGGGUUGUCUGAAAUUCCCUUUCAGGCUGUGGGUACUGGUCUUGGGUU,0.306
CUUGAAUAGCUCUAACUCCAAACCUCUGUCCACACCUCCAGAGCACCAAGUCCAGAUUUGUGUGUAAGCAGCUGGGUGCCUGGGGCCUCUCGUGCACACUGGAUUGGUUU,0.645
UCUUACUAGGAGCACAUUCUUUGCCUGCCUUCCCUUCAUCCUAUCCUCUUUGCUUGCUCUCACCUCAGGAAUUGCUUGGAUUGCUACAUGGACCCCCUGAGACUAUCAUU,5.08
GUUAGGUUGAACUUGGGAAAGCAAGCCCAAGUUCAACCUAACUCCUGCUGUAAAAUGGAGAGAACUGUAGCAAAUGAACAGCCCUUUAAGAUUACCUAGCUGCCUCUCUG,0.25
AUAUAUACAGACCUAAAUUUUAAAAUCUGUACAUAUAUUAUUUUGAUGUAUUAAGAUUGAUAAUAUUGCUGAUUUAAAUUUUAUUUAUGCACAUACUUAAAGGACAGAAA,0.578
CGUGAACACAAAGCCUCGGAUCAGCCUUGAGAGAGGCCACACUACACACACCAGAUGGCAUCCUUGGGACCUGAAUCUAUCACCCAGGAAUCUCAAACUCCCUUUGGCCC,0.173
UACAUAUAUAGAGAUAAUUCUCAAUGCCUAAUUAAUAUACUUAUACAUUUGUUAAGGUAUGCGCAUAAUUACAGCAACUGUUUUUAUAGUUUGUAUCCCAGAGUAUACUG,0.262

# Sample 2
# Target: ABI1, truncated, D143A, DHFR fusion (Arabidopsis thaliana)
# Method: DHFR PCA, deep sequencing
# Matrix: yeast
# Notes: methotrexate growth selection, single substitutions
# Together with: (+)-ABA 2500 µM
# Reference: wild-type fitted maximum
# Direction: higher = stronger binding
# Parent: PYL1, truncated, DHFR fusion (Arabidopsis thaliana); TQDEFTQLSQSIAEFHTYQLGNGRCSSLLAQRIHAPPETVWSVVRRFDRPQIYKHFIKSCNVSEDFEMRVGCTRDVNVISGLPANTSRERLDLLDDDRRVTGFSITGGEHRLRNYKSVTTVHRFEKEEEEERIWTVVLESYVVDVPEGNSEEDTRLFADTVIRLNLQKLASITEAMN
Change,relative binding score [%]
L93T,104
S59V,94.1
S171W,88.2
P37H,81.4
G81N,80.3
F47R,-11.3
V137N,6.14
F5V,106
C25K,73.9
S42R,103
S80M,47.2
D96K,80.5
R49F,87.9
E129C,95.4

# Sample 3
# Target: CCNF, cyclin fold, Cln2 fusion (human)
# Method: yeast growth competition, sequencing
# Matrix: yeast
# Notes: strong parent motif
# Reference: not given
# Direction: higher = stronger binding
# Parent: RB1 docking peptide (human); PKPLKKLRFDIEG
Change,normalised enrichment score
PKPLKKLRFDIED [G13D],2.09
PAPLKKLRFDIEG [K2A],1.06
GKPLKKLRFDIEG [P1G],0.917
PKPLKKLRFDIEE [G13E],1.91
PKPAKKLRFDIEG [L4A],2.67
PKPLKKLRGDIEG [F9G],1.22
PKPMKKLRFDIEG [L4M],3.31
PKPLKHLRFDIEG [K6H],1.14
PKPLKKCRFDIEG [L7C],0.88
HKPLKKLRFDIEG [P1H],0.655
PKGLKKLRFDIEG [P3G],1.73
PKPLKKGRFDIEG [L7G],1.12
PKPLKCLRFDIEG [K6C],1.22
PKPLKKLRCDIEG [F9C],0.528
PKPLKKLRFGIEG [D10G],2.81
CKPLKKLRFDIEG [P1C],2.21
PKPLKKLRFDYEG [I11Y],0.944
PQPLKKLRFDIEG [K2Q],0.83
PMPLKKLRFDIEG [K2M],1.11
PKPLKKLRVDIEG [F9V],0.701
PKPFKKLRFDIEG [L4F],1.99
PKPLKKLRFFIEG [D10F],4.26
PKPLKKLRFDIEI [G13I],2.27
VKPLKKLRFDIEG [P1V],1.06
PKPLKKLNFDIEG [R8N],2.31

# Sample 4
# Target: MAFK, bZIP domain (human)
# Method: DHFR protein complementation
# Matrix: yeast
# Notes: single substitutions, most at no-binding floor
# Reference: wild-type JUN-FOS pair
# Direction: higher = stronger binding
# Parent: JUN, bZIP domain (human); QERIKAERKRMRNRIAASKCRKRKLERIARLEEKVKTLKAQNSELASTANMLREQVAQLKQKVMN; partner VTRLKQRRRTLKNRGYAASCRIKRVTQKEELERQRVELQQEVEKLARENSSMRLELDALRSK
Change,binding fitness [natural log]
L38F,-1.5
A46S,-1.52
E44L,-1.44
Q41A,-1.48
T48Y,-1.56
E44A,-1.47
R30C,-1.31
K36S,-1.55
T37R,-1.34
Q41V,-1.46
E32C,-1.51
I28V,-1.36
S43N,-1.49
M51T,-1.38

# Sample 5
# Target: Hepatocyte nuclear factor 3-alpha (Foxa1, Mus musculus, UniProt P35582, residues 1-468, full length assumed)
# Method: EMSA with sequencing
# Molecule type: double-stranded DNA, one strand shown
# Matrix: in vitro
# Tested at: 10 and 20 nM
# Notes: whole designed probe, mean of two concentrations, ends assumed
# Reference: negative control set to 0
# Direction: higher = stronger binding
# Constant ends, left off below: GTGAGCGGTGCCCATTGATGGGGAAC … TTTCACTGGGATCGTGGGGAC
# Construct (chain): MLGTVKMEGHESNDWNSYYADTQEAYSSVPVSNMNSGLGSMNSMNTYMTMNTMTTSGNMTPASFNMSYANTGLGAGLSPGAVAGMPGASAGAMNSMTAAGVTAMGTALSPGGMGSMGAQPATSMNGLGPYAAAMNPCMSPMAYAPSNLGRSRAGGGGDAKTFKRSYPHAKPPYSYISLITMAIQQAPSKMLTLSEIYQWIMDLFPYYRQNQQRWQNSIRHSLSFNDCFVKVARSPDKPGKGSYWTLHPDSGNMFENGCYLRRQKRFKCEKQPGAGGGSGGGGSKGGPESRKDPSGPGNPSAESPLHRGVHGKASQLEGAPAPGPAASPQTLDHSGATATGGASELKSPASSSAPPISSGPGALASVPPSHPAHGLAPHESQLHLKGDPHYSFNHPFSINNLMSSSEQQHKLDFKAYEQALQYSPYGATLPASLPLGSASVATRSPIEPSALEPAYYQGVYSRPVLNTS
Oligonucleotide,normalised bound fraction [ratio]
TGAAGCCTAGTGTTCTCTCTCAACCCCAGCTCAAACAGATATTTTGAAAAGGAAACAGAAACTCCACACACTTCCCTGTTTGCCTATTTCCATGTTTACATTTCTCTAACAGCTAACACTATGTTTGGTTAGTTTAACTAAGTTATCCTGCTCACTTAAAATTCTATTTTTTTCTGGTTATATCTGACAATAG,0.435
AGGCCTTACCAAATGGAAGTTGCCCAGCCAGCCTTGGAAGGGAAGAATATCATCATCTGCCTCCCTACAGGGAGTGGAAAAACCAGAGTGGCTGTTTACATTGCCAAGGATCACTTAGACAAGAAGAAAAAAGCATCTGAGCCTGGAAAAGTTATAGTTCTTGTCAATAAGGTATTCAAAGAACACATAACAC,0.252
AAGATATGATTATTATACGTGTGTCTGTTTTTATATAGAATTTGTTAGAAGTCTCTAGTACACCATACCAGAAAAAGTTTAGCTAAAACAAAGTAATCTTGAAATATTGCAAAGAAAACCAATAGAAACTTAACAGAATAAATAATATTTATTTTCCAGAATAAAGACACAATATAAGTGAAGCTTCAAATTT,0.29
TCTAGTGCTCACAGAACGGCATCGCCGCGGCTCTTCTTCGCTGTGTGTCTGTGCCAAGTCTATCCAACGCCGCCAAAGTCCCCTCTGCTCTCAGCAATCTCAGGTGAAGCTCTTGCCTTCTTAAATCCTTGACTTGACCTTGCTGTCCCATAAGTCCTGAATTTCTCCTTTTCACGAGGAAGCTCTTGGAACA,-0.0803
TCTTTATTGCGTCCTCTATATGAGCCTGATGCTAACTCACGCTACCTCACCCCCTATGCCTCAGGATCACTTACCTGACCCACTAACGCCGGTGTTTACATTGGTTCCTGCCCCGTTTTAGGTGGAGGGGCCCTTCGGAGAACAATGGTGCATTCACCAAGTCTAGATTCCTCTGTAGAAGAGTTATATGCGA,0.303
TACAGGAAATTTATCAGCTCTTGTTGATTCTGTTAGCTCGTGATCAATGTTGAGCCTAAAAAGAACGTGGCCGAATCAGTGGTTTGTAACCCATGTTTATTCTAATCAGTCAGTCCGGGGCTATAATGGTAGTTGGATGTTTTTAATACTATCTTTGGCAAATTCCCATATATTCACATACAGCATAGTTACA,0.183
ATCTTCCCCCTCTTCCTTGCCCCACCAGCTCACCTACGGGGGTTATTTGCAGATAGGAAAATAAATAAAGCCGGCATTCGTTAACGCAGTTCTGGCGCAAACTGCTGTTTGCTCTGCATGAATCATGGTCCTTACGCGACGCCAGGCTCCGGGAGAGCAAAGCACCGTGTCAGGCGCATGATCCGGGCTCGCC,0.351
TGGCTGGCATCAAGGACTTTGGCTCTGGGGGTGTTCCCAGTCAACAGTTAACTAAAGACCAGGCCACTGTGCCTAGACTGTTTGTGCATTTGTGCAATCTATATGGGTTCATGCTGAACACCTGCGTTCCTTCTGAGAGTCTGAAAAGTTTAGAACATGCCAGGCAGAGGGTGTGTACCTGACCAACCCCCAA,0.00182

# A few entries again (sample 1):
Oligonucleotide,RBNS enrichment (R)
UGAACAGGGCUGUUAAAGGUCCAUGCUCAAAUACAAGGGAGACAACAGAUAGGACAGGACAGGGCUCUGGGUGCUGUCCAGGGACUAAGGAAUACAGCUAAAUAAACCAA,0.421
CGUGAACACAAAGCCUCGGAUCAGCCUUGAGAGAGGCCACACUACACACACCAGAUGGCAUCCUUGGGACCUGAAUCUAUCACCCAGGAAUCUCAAACUCCCUUUGGCCC,0.173
UCUUACUAGGAGCACAUUCUUUGCCUGCCUUCCCUUCAUCCUAUCCUCUUUGCUUGCUCUCACCUCAGGAAUUGCUUGGAUUGCUACAUGGACCCCCUGAGACUAUCAUU,5.08
CUUGAAUAGCUCUAACUCCAAACCUCUGUCCACACCUCCAGAGCACCAAGUCCAGAUUUGUGUGUAAGCAGCUGGGUGCCUGGGGCCUCUCGUGCACACUGGAUUGGUUU,0.645
AUAUAUACAGACCUAAAUUUUAAAAUCUGUACAUAUAUUAUUUUGAUGUAUUAAGAUUGAUAAUAUUGCUGAUUUAAAUUUUAUUUAUGCACAUACUUAAAGGACAGAAA,0.578
CCUGUACCAUAUUAUGGAAAACUGUUAACUGCUUAAUUGGGUAAUUUUCAAAGAAAGUAAUGUUGUUAAAUGGGGCGAAAUAAGAAGUUAAAUUUGAAAGUGAAUGUGUU,0.842
UGGAAUCCUCACUGUAUCCACUAGGAGAUUAGAAAUUAAGGUUUCUUCACUACUUCUAUGGUAGGGUUGUCUGAAAUUCCCUUUCAGGCUGUGGGUACUGGUCUUGGGUU,0.306
UUCUCGUUUCUAUGCAGCCCCAUAGUCCAAGGACACCCAGUCCACAUCUACCAUAUAGCAAGUUUAGUAAGGGAAGGCAGCAUACGUCCCAGGGACAGUGGGUUUGGAUC,1.82
